Assay results from different studies.
Lines come from different studies, so protocols differ. ± gives the spread as reported.

O=C1c2cccc(O)c2C(=O)c2c(O)cc(CO)cc21 has a cell viability of 35.5 ± 2.23% (HepaRG co-cultured with HK-2; MTT; 266.67 µM, 48 h; relative to: untreated control).
For NC1(C(=O)N[C@@H](CCO)c2ccc(Cl)cc2)CCN(c2nc[nH]c3nccc2-3)CC1, “incidence of Amnesia” read 0% (metastatic CRPC patients; 320 mg b.i.d., grade 3 to 4, treatment-related, added: enzalutamide 160 mg daily).
CC(C)(C(=O)N1CCOc2c(C#N)cncc2C1)C(F)F — result for “subjects with adverse event”: 0% (item: Dizziness; human; oral, 20 mg twice daily, 14 days, multiple ascending dose).
COc1c(O)cc2c(c1O)C(=O)c1c(cc(C)c(O)c1OC)C2=O has a cell viability of 5.61 ± 2.04% (HepaRG co-cultured with HK-2; MTT; 266.67 µM, 48 h; relative to: untreated control).
For Cc1cc(NC2CCN(C(=O)OC3CCN(C(=O)/C=C/CN(C)C)C3)CC2)n2ncc(C(C)C)c2n1 (centres unmarked), “patients with Ascites” read 2% (patients with advanced solid tumours; dose not given, QD arm, grade 3 or higher).
For CCc1cc2ncc(CN3CCN(c4ccc(C(=O)NC)nc4)CC3)cc2[nH]c1=O, “Neutrophils count ratio” read 0.53 (female rat, blood; oral, 50 mg/kg/day, 4 weeks; relative to: vehicle control).
O=C(O)CCc1ccccc1O has a plasma concentration of 2720 nM (human plasma; mean).
With CCC[C@@H]1C[C@@H](C(=O)N[C@@H]([C@H]2O[C@H](SC)[C@H](O)[C@@H](O)[C@H]2O)[C@@H](C)O)N(C)C1 the amount permeated was 2.87 nmol (starch gel membrane permeability; Gram-negative envelope surrogate; 200 µM, 60 min, pH 7.4).
Cc1ccc([C@@H]2O[C@H](CO)[C@@H](O)[C@H](O)[C@H]2O)cc1Cc1ccc(-c2ccc(F)cc2)s1: “urinary magnesium excretion change” -3.36 mg (Japanese type 2 diabetes patients; 400 mg, day 4, 24 h urine collection; relative to: baseline).
CCCCC[C@H](O)CC[C@@H]1[C@H]2Cc3cccc(OCC(=O)O)c3C[C@H]2C[C@H]1O — result for “geometric mean AUC(0-inf)”: 0.51 ng·h/mL (LC-MS/MS; Japanese PAH patients, plasma; inhaled, 54 µg, background ERA therapy).
Cc1cc(Nc2cc3ncccc3c(N[C@@H]3C[C@H]4CC[C@@H](C3)N4CCC#N)n2)n[nH]1 has an AUC(0-24) of 55.7 ng·h/mL (human; 300 mg, day 1).
O=C(c1cccnc1-c1ccncc1)N1CCC(O)(Cc2ccccc2)CC1 gave an AUClast of 860 ng·h/mL (healthy Japanese adults, plasma; oral, 200 mg twice daily, day 14).
CC(C)NCCCC[C@@H]1NC(=O)[C@H](Cc2ccc(O)cc2)NC(=O)[C@H](Cc2ccccc2)NC(=O)CC[C@H](C(=O)N[C@@H](CCCCNC(C)C)C(=O)N[C@@H](CCCCNC(=O)[C@H](CCC(=O)O)NC(=O)[C@H](CCC(=O)O)NC(=O)[C@H](CCC(=O)O)NC(=O)CN2CCN(CC(=O)O)CCN(CC(=O)O)CCN(CC(=O)O)CC2)C(N)=O)NC(=O)CNC(=O)[C@H](Cc2ccc3ccccc3c2)NC(=O)[C@@H](CCCNC(=N)N)NC1=O [gallium-68 labelled] gave a tissue uptake of 0.05 %ID/g (mouse with Daudi xenograft, pancreas; intravenous, 2 h).
Cc1noc(C)c1-c1cc(C(O)(c2ccccn2)c2ccccn2)c2nc(C3CC3)[nH]c2c1 gave a Ctau of 237 ng/mL (human patients, plasma; oral, 6 mg, cycle 1 day 8, monotherapy, 24 h).
O=C(O)CCc1nc(-c2ccccc2)c(-c2ccccc2)o1 gave a necrotic cells of 0.69 ± 0.21 (COS-7; 50 µM, 24 h, 0.1% DMSO, unit not given; relative to: vehicle control).
The amount permeated of CN(C)[C@@H]1C(O)=C(C(N)=O)C(=O)[C@@]2(O)C(O)=C3C(=O)c4c(O)cccc4[C@@](C)(O)[C@H]3C[C@@H]12 is reported as 0.68 nmol (starch gel membrane permeability; Gram-negative envelope surrogate; 200 µM, 10 min, pH 7.4).
CCN1/C(=C/C(C)=O)Sc2ccc(F)cc21: “heart rate change” 95.6 ± 22.3% (cynomolgus monkey; oral, 100 mg/kg, 6 h post-dose; relative to: pre-dose).
The plasma concentration of O=C(/C=C/c1ccc(O)c(O)c1)O[C@@H]1C[C@](O)(C(=O)O)C[C@@H](O)[C@H]1O is reported as 18.9 nM (human plasma; median, both sexes).
With O=C(O)C[C@H](O)C[C@H](O)/C=C/c1c(C2CC2)nc2ccccc2c1-c1ccc(F)cc1 the necrotic cells was 0.7 ± 0.03 (COS-7; 10 µM, 24 h, 0.1% DMSO, unit not given; relative to: vehicle control).
CN1CCN(c2cccc3c2CCN(C(=O)/C=C/c2c(-n4cnnn4)ccc(Cl)c2F)[C@@H]3C(=O)Nc2ccc(C(=O)O)cc2)C(=O)C1: “subjects with infusion site pain” 0% (healthy human subjects; intravenous infusion, 20 mg/h, 5 days).
O=C(O)[C@H]1O[C@@H](Oc2ccc(/C=C\c3cc(O)cc(O)c3)cc2)[C@H](O)[C@@H](O)[C@@H]1O — result for “samples above LOQ”: 0% (human, cerebrospinal fluid).
C=CC[C@@H]1/C=C(\C)C[C@H](C)C[C@H](OC)[C@H]2O[C@@](O)(C(=O)C(=O)N3CCCC[C@H]3C(=O)O[C@H](/C(C)=C/[C@@H]3CC[C@@H](O)[C@H](OC)C3)[C@H](C)[C@@H](O)CC1=O)[C@H](C)C[C@@H]2OC — result for “plasma total Ca2+”: 2.7 ± 0.04 mmol/L (Wistar Kyoto rat, male, plasma; ip, 0.5 mg/kg/day, day 28, at sacrifice).
CCc1nc(C(N)=O)c(Nc2ccc(N3CCC(N4CCN(C)CC4)CC3)c(OC)c2)nc1NC1CCOCC1: “accumulation ratio (AUC)” 5.48 (Japanese patients, plasma; oral, 40 mg, cycle 1 day 28, multiple doses, median; relative to: single dose).

Excerpt of the above:
O=C(c1cccnc1-c1ccncc1)N1CCC(O)(Cc2ccccc2)CC1 gave an AUClast of 860 ng·h/mL (healthy Japanese adults, plasma; oral, 200 mg twice daily, day 14).
